Published values pooled from the literature.
± gives the spread as reported.

Structure (SMILES) | assay | test system | setting | scale | measurement | result
O=C(O)c1cc(O)c(O)c(O)c1 | cytochrome c release, ELISA | BALB/cByJ female mouse liver mitochondria | 30 min | relative to: alamethicin maximal release | EC20 | > 200 µM
CCc1oc2cc(O)ccc2c1C(=O)c1cc(Br)c(O)c(Br)c1 | metabolic stability | Sprague-Dawley rat, liver microsomes | 1 µM, pH 7.4 | – | microsomal CLint | 23 µL/min/mg
CC(C)[C@H](N)C(=O)OCC1(CO)C/C1=C/n1cnc2c(=O)[nH]c(N)nc21.Cl (mixture of isomers) | measured: prodrug | Swiss-Webster mice, male, plasma | intravenous, 24.6 mg/kg | – | elimination rate constant | 0.0043 min⁻¹
COc1cc(Nc2ncc3c(n2)-c2ccc(Cl)cc2C(c2c(F)cccc2OC)=NC3)ccc1C(=O)O | – | human, phase I | oral, 30 mg twice daily, together with: combination with other drug | – | AUC(0-8h) | 6.12 ± 2.33 µg·h/mL
CS(=O)(=O)n1cc2c(n1)CN([C@H]1CO[C@H](c3cc(F)ccc3F)[C@@H](N)C1)C2 | – | healthy male human, plasma | oral, 1.5 mg, fasted, geometric mean | – | AUC(0-24h) | 340 nM·h
CCN(CC)CC(=O)Nc1c(C)cccc1C | cytochrome c release, ELISA | BALB/cByJ female mouse liver mitochondria | 30 min | relative to: alamethicin maximal release | EC20 | > 800 µM
Cn1c(-c2ccc(C(N)=O)cc2F)nnc1C(C)(C)Oc1c(F)cc(Cl)cc1F | – | healthy young Japanese subjects, plasma | oral, 10 mg once daily, day 18, 14 days dosing | – | AUC(0-tau) median | 1.76 µg·h/mL
C[C@@H](O)[C@H]1C(=O)N2C(C(=O)O)=C(S[C@@H]3CN[C@H](C(=O)N(C)C)C3)[C@H](C)[C@H]12 | microdialysis | pig (Danish Landrace), cortical bone | iv infusion, 1000 mg over 10 min, MIC 0.25 µg/mL, together with: vancomycin co-administered | – | time above MIC | 177 min
COC(=O)C[C@](O)(CCCC(C)(C)O)C(=O)O[C@@H]1C(OC)=C[C@]23CCCN2CCc2cc4c(cc2[C@H]13)OCO4 | – | CD1 mouse, brain | oral, 1 mg/kg, 2 h, below quantification limit 1.00 ng/mL | – | tissue concentration | not detected
Nc1c(Br)cc(Br)cc1CN[C@H]1CC[C@H](O)CC1 | cytochrome c release, ELISA | BALB/cByJ female mouse liver mitochondria | 30 min | relative to: alamethicin maximal release | EC20 | > 400 µM
CC1=C2C[C@H]3[C@@H](CC[C@@H]4C[C@H](NS(C)(=O)=O)CC[C@@]43C)[C@@H]2CC[C@@]2(C1)O[C@@H]1C[C@H](C)CN[C@H]1[C@H]2C | – | patients, plasma | oral, 160 mg single, day -7, cycle 1 | – | Tmax | 4.52 h
COc1cc(C=CC(=O)O)ccc1OC1OC(C(=O)O)C(O)C(O)C1O (stereo not shown) | – | human, fasted baseline, cerebrospinal fluid | – | – | mean concentration | 0.0181 µM
[2H]C([2H])([2H])Oc1cc2c(cc1OC([2H])([2H])[2H])C1CC(=O)C(CC(C)C)CN1CC2 (stereo not shown) | measured: deuterated β-HTBZ | healthy human volunteers, plasma | oral, 6 mg single dose, standard meal | – | dose-normalized AUC(0-inf) | 4.8 ng·h/mL
CCCOc1ccc([C@H]2CNC(=O)N2c2ccc3[nH]cnc3c2)cc1 | – | human, plasma | oral, 800 mg, single dose, fasted | – | AUC(0-inf) | 8.58 µg·h/mL
Cc1cccc(C)c1N(CC(=O)Nc1ccc(-c2ncon2)cc1)C(=O)C1CCS(=O)(=O)CC1 | radio-HPLC | human | oral, 200 mg, 0.5 to 12 h | – | share of plasma radioactivity | ~80%
CC(C)(CC(=O)N1CCCC1)NCC(=O)N1C[C@@H](F)C[C@H]1C#N | – | Chinese type 2 diabetes patients, plasma | oral, 50 mg once daily, multiple doses | – | AUC(0-tau) at steady state | 0.728 µg·h/mL

Excerpt of the above:
Structure (SMILES) | assay | test system | setting | scale | measurement | result
CC(C)(CC(=O)N1CCCC1)NCC(=O)N1C[C@@H](F)C[C@H]1C#N | – | Chinese type 2 diabetes patients, plasma | oral, 50 mg once daily, multiple doses | – | AUC(0-tau) at steady state | 0.728 µg·h/mL
CCCOc1ccc([C@H]2CNC(=O)N2c2ccc3[nH]cnc3c2)cc1 | – | human, plasma | oral, 800 mg, single dose, fasted | – | AUC(0-inf) | 8.58 µg·h/mL
